Measured values from different studies.
Each line is one published result; not all experiments were run side by side. ± gives the spread as reported. ≈ marks a conversion by molar mass, not a printed value.

`CC(C)=CCC[C@](C)(O[C@@H]1O[C@H](CO)[C@@H](O)[C@H](O)[C@H]1O)[C@H]1CC[C@]2(C)[C@@H]1[C@H](O)C[C@@H]1[C@@]3(C)CC[C@H](O)C(C)(C)[C@@H]3[C@@H](O[C@@H]3O[C@H](CO)[C@@H](O)[C@H](O)[C@H]3O)C[C@]12C`: “post-preparative stability accuracy” 94.8 ± 7.5% (rat, extracted plasma QC samples; 2.0 µg/mL, 24 h, 15 °C, autosampler).
`O=C(O)c1cccc(CN2CN(C3CCCCC3)C3(CCN(CCCC(=O)c4ccccc4)CC3)C2=O)c1` — result for “subjects below LLOQ”: greater than 50% (human healthy adults, plasma; dose not given, 24 h, with: esomeprazole).
`CNCc1ccc(-c2[nH]c3cc(F)cc4c3c2CCNC4=O)cc1`: “volume of distribution” 403 L (human cancer patients, plasma; intravenous, 4 mg/m2, day 4, with: temozolomide 100).
With `CN(CCC(=O)O)C(=O)c1ccc2c(c1)CC[C@@H]1[C@@H]2CC[C@]2(C)C(c3cncc(F)c3)=CC[C@@H]12` the exposure margin was roughly 16 fold (measured: unbound AUC(0-24) steady state; cynomolgus monkey, female; 40 mg/kg; baseline: animal over human at 60 mg BID).
`CC(/C=C/C=C(\C)C(=O)O)=C\C=C\C=C(C)\C=C\C=C(/C)C(=O)O` has a solubility of less than 0.5 µg/mL (shake-flask; FeSSGF; 1 h, pH 5.0, 37 °C).
`COc1ccc2cc3[n+](cc2c1OC)CCc1cc2c(cc1-3)OCO2` gave a measured concentration of 624 ± 13.1 ng/mL (rat plasma QC sample; 640 ng/mL nominal, 15 days, -80 °C, high QC level storage stability).
For `CC(C)C[C@@H]1NC(=O)[C@H](C)N(C)C(=O)[C@H](Cc2ccccc2)NCc2ccc(n2C)CNC1=O`, the Papp was 0.501 ×10⁻⁶ cm/s (PAMPA; 100 µM, 17 h, pH 6.4).
`CCN(CC)CCNC(=O)c1c(C)[nH]c(/C=C2\C(=O)Nc3ccc(F)cc32)c1C`: “minimum trough plasma concentration” 13.4 ng/mL (human, plasma; oral, 15 mg/m2, day 7).
`CC[C@H](C)[C@@H]1NC(=O)[C@H](CCCCN)NC(=O)[C@H](CCCCN)NC(=O)[C@H](Cc2ccc(O)cc2)NC(=O)[C@H](CC(C)C)NC(=O)[C@@H]2CCCN2C(=O)[C@H](C)NC(=O)CNC(=O)CNC(=O)[C@H](CO)NC(=O)CNC(=O)CNC(=O)[C@H](CO)NC(=O)[C@H](CCCCN)NC(=O)[C@H](CC(C)C)NC(=O)[C@H](CC(C)C)NC(=O)[C@H](CCCCN)NC(=O)[C@H](CCCCN)NC(=O)[C@H]([C@@H](C)CC)NC(=O)[C@H]([C@@H](C)CC)NC(=O)[C@H](CCCCN)NC(=O)[C@H](CCCCN)NC(=O)[C@H](Cc2ccc(O)cc2)NC(=O)[C@H](CC(C)C)NC(=O)[C@@H]2CCCN2C(=O)CNC(=O)CNC(=O)[C@@H](NC(=O)CN)CSSC[C@@H](C(N)=O)NC(=O)[C@H](CC(C)C)NC(=O)[C@H](CCCCN)NC(=O)[C@H](CCCCN)NC(=O)[C@H]([C@@H](C)CC)NC1=O` has a helicity of 33% (circular dichroism; aqueous NaF phosphate buffer; 50 µM, pH 7.5).
`CCOc1ccc(Cc2cc([C@@H]3S[C@H](CO)[C@@H](O)[C@H](O)[C@H]3O)c(OC)cc2C)cc1` has a tissue/plasma ratio of 94.9 ± 74.3 (Wistar rat, male, kidney; oral, dose not given, 1 h; baseline: kidney over plasma concentration).
`CCCC[C@H](NC(C)=O)C(=O)N[C@H]1CCC(=O)NC[C@@H](C(=O)N[C@@H](Cc2c[nH]c3ccccc23)C(N)=O)NC(=O)[C@H](CCCNC(=N)N)NC(=O)[C@@H](Cc2ccccc2)NC(=O)[C@H](Cc2c[nH]cn2)NC1=O` has an AUC(0-t) of 4550 ng·h/mL (Sprague Dawley rat, male, plasma; subcutaneous, 5.0 mg/kg daily, day 28).
With `Cn1c(=O)c2c(ncn2Cc2nnc(SCC(=O)Nc3ccccc3)n2-c2ccccc2)n(C)c1=O` the haemolysis was 11.7% (bovine erythrocytes; 1 mg/mL, 30 min, pH 7.4, 37 °C).
`COc1cc2c(cc1OC)[C@@H]1Cc3ccc(OC)c(OC)c3CN1CC2` has a measured concentration of 632 ± 11.9 ng/mL (rat plasma QC sample; 640 ng/mL nominal, 15 days, -80 °C, medium QC level storage stability).
`CN1CC[C@@H](NC(=O)Nc2ccc(C#N)cc2)C[C@@H]1c1nc2ccccc2[nH]1` has a Vc/F of 3.32 L (population PK model; human cancer patients, plasma; oral, sample A kg patient).
Under “tissue to peel content ratio”, `COc1ccc(-c2cc(=O)c3cc(OC)c(OC)c(OC)c3o2)cc1OC` is recorded as 0.016% (C57BL/6 mouse, male, testes; oral, 1% w/w in diet, 6 weeks, orange peel extract diet; baseline: content in orange peel).
`O=C1C=Cc2c(c(-c3ccco3)cn2S(=O)(=O)c2ccccc2)C1=O` has a kinetic solubility of 21.2 µM (≈ 7.51 µg/mL) (LC-MS; PBS, 5% DMSO; 2 h).
For `CC1=C2C[C@H]3[C@@H](CC[C@@H]4C[C@H](NS(C)(=O)=O)CC[C@@]43C)[C@@H]2CC[C@@]2(C1)O[C@@H]1C[C@H](C)CN[C@H]1[C@H]2C`, the AUC(0-24) was 58.5 ng·h/mL (patients, plasma; oral, 20 mg single, day -7, cycle 1).
For `CC[C@H](C)[C@@H]1NC(=O)[C@H](Cc2ccc(O)cc2)NC(=O)[C@@H](N)CSSC[C@@H](C(=O)N2CCC[C@H]2C(=O)N[C@@H](CC(C)C)C(=O)NCC(N)=O)NC(=O)[C@H](CC(N)=O)NC(=O)[C@H](CCC(N)=O)NC1=O`, “AUC above baseline” read 185 ± 96 pg·30 min/sample (microdialysis, radioimmunoassay; knock-out male mice lacking compound, hippocampus extracellular fluid; intranasal, 12 µg, incremental area over baseline).
The AUC(0-t) of `CCCCC1(CCCC)CN(c2ccccc2)c2cc(SC)c(OCC(=O)N[C@@H](C(=O)NCC(=O)O)c3ccccc3)cc2S(=O)(=O)C1` is reported as 0.314 ng·h/mL (human, plasma; oral, 2.5 mg once daily, day 1, geometric mean).
Under “Cmax range over subjects”, `Cn1c(-c2ccc(C(N)=O)cc2F)nnc1C(C)(C)Oc1c(F)cc(Cl)cc1F` is recorded as 482 to 852 ng/mL (young Japanese adults, plasma; oral, 50 mg single dose, day 1, high-dose multiple-dose study).
With `CN1CC[C@@H](NC(=O)Nc2ccc(C#N)cc2)C[C@@H]1c1nc2ccccc2[nH]1` the AUC(0-inf), unbound was 998 ng·h/mL (moderate hepatic impairment, plasma; oral, 100 mg single dose, fasted, geometric mean).
The AUC(0-48 h) of `O=C(c1ccc(OCCN2CCCCC2)cc1)c1c(-c2ccc(O)cc2)sc2cc(O)ccc12` is reported as 0.00626 µM·h (healthy humans, plasma; oral, 60 mg, with: chronic green tea).
`NC(=O)CC[C@@H]1NC(=O)[C@H](Cc2ccccc2)NC(=O)[C@H](Cc2ccc(O)cc2)NC(=O)CCSSC[C@@H](C(=O)N2CCC[C@H]2C(=O)N[C@H](CCCN=C(N)N)C(=O)NCC(N)=O)NC(=O)[C@H](CC(N)=O)NC1=O` — result for “stock solution stability”: 104% (UPLC-MS/MS; water; 0.1 mg/mL, 15 days, 2-8 °C; baseline: fresh stock solution).
For `Cc1cc(C)c(/C=C2\C(=O)Nc3ccccc32)[nH]1`, “right ventricular systolic pressure” read 64.9 ± 8.4 mmHg (male Sprague-Dawley rat, hypoxic pulmonary hypertension; subcutaneous, 20 mg/kg, 28 days post-hypoxia, 3 weeks hypoxia).
The HPLC retention of `CC(C)C[C@H](NC(=O)[C@H](CC(C)C)NC(=O)[C@@H](NC(=O)[C@H](Cc1ccccc1)NC(=O)[C@@H](Cc1c[nH]c2ccccc12)NC(=O)[C@@H](N)CCCCN)[C@H](c1ccccc1)c1c[nH]c2ccccc12)C(N)=O` is reported as 44.3 %B (RP-HPLC Kinetex Biphenyl; acetonitrile/water TFA gradient).
The AUC(0-36 h) of `CC(C)=CCC[C@](C)(O[C@@H]1O[C@H](CO)[C@@H](O)[C@H](O)[C@H]1O)[C@H]1CC[C@]2(C)[C@@H]1[C@H](O)C[C@@H]1[C@@]3(C)CC[C@H](O)C(C)(C)[C@@H]3[C@@H](O[C@@H]3O[C@H](CO)[C@@H](O)[C@H](O)[C@H]3O[C@@H]3O[C@@H](C)[C@H](O)[C@@H](O)[C@H]3O)C[C@]12C` is reported as 6400 ± 1400 ng·h/mL (Sprague Dawley rat, male, plasma; oral, 45 mg/kg, in red ginseng extract).
`O=C(CCCCCCC(=O)Nc1ccccc1)NO` gave an AUC(0-7 h) of 40.2 µM·h (patients, serum; oral, 1000 mg, cycle 1 day 2, with: flavopiridol 30+30 mg/m2).
`O=C1c2cccc3c2[C@H](CCC3)CN1[C@@H]1CN2CCC1CC2` — result for “time to first quantifiable plasma level”: no more than 1 h (human, plasma; oral, dose not given).
For `Cc1nc2cccc(OCC(C)(C)C(=O)NC(C)C)c2c(N)c1C(=O)O`, the Cmax was 15.9 ng/mL (male Sprague-Dawley rat, plasma; dietary, 60 mg/kg/day, day 7).
`Cc1ccc(NC(=O)c2ccc(CN3CCN(C)CC3)cc2)cc1Nc1nccc(-c2cncc(-c3oncc3C)c2)n1` has a dose-normalised AUC(0-inf) of 490 ng·h/mL/mg (Parkinson's disease patients, plasma; oral, 50.0 mg once daily, day 1, 7-day dosing, mean).
With `CCn1c2ccccc2c2cc(-n3nncc3-c3ccccc3)ccc21` the concentration was 235 ng/g (SCID mice, female, MDA-MB-468 mammary fat pad tumour; intraperitoneal, 10 mg/kg single dose, 30 min).
For `Cc1cnc(NC(=O)C2=C(O)c3ccccc3S(=O)(=O)N2C)s1`, “hepatocyte necrosis score” read 0 (Sprague-Dawley rat, male, liver; oral, 0.4 mg/kg, 24 h, single low dose; direction not given).
The HPLC retention of `CCCCCCCC(=O)OC[C@H](NC(=O)[C@H](CO)NC(=O)CN)C(=O)N[C@H](C(=O)N[C@@H](CC(C)C)C(=O)N[C@@H](CO)C(=O)N1CCC[C@H]1C(=O)N[C@@H](CCC(=O)O)C(=O)N[C@@H](Cc1c[nH]cn1)C(=O)N[C@@H](CCC(N)=O)C(=O)N[C@@H](CCCNC(=N)N)C(=O)N[C@H](C(=O)N[C@@H](CCC(N)=O)C(=O)N[C@@H](CCC(N)=O)C(=O)N[C@@H](CCCNC(=N)N)C(=O)N[C@@H](CCCCN)C(=O)N[C@@H](CCC(=O)O)C(=O)N[C@@H](CO)C(=O)N[C@@H](CCCCN)C(=O)N[C@@H](CCCCN)C(=O)N1CCC[C@H]1C(=O)N1CCC[C@H]1C(=O)N[C@@H](C)C(=O)N[C@@H](CCCCN)C(=O)N[C@@H](CC(C)C)C(=O)N[C@@H](CCC(N)=O)C(=O)N1CCC[C@H]1C(=O)N[C@@H](CCCNC(=N)N)C(=O)O)C(C)C)[C@H](c1ccccc1)c1c[nH]c2ccccc12` is reported as 33 %B (RP-HPLC Kinetex Biphenyl; acetonitrile/water TFA gradient).
The AUCss increase of `CC[C@H](C)[C@H](NC(=O)[C@H](Cc1ccccc1)NC(=O)[C@H](CC(=O)O)NC(=O)[C@H](CCCNC(=N)N)NC(=O)[C@H](C)NC(=O)[C@H](C)NC(=O)[C@H](CC(C)C)NC(=O)[C@H](CC(N)=O)NC(=O)[C@H](CC(=O)O)NC(=O)[C@H](CC(C)C)NC(=O)[C@@H](NC(=O)[C@@H](NC(=O)[C@H](CC(N)=O)NC(=O)[C@H](CCSC)NC(=O)[C@H](CCC(=O)O)NC(=O)[C@H](CC(=O)O)NC(=O)[C@H](CO)NC(=O)[C@H](Cc1ccccc1)NC(=O)[C@H](CO)NC(=O)CNC(=O)[C@H](CC(=O)O)NC(=O)CNC(=O)[C@@H](N)Cc1c[nH]cn1)[C@@H](C)O)[C@@H](C)CC)C(=O)N[C@@H](CC(N)=O)C(=O)N[C@@H](Cc1c[nH]c2ccccc12)C(=O)N[C@@H](CC(C)C)C(=O)N[C@H](C(=O)N[C@@H](CCC(N)=O)C(=O)N[C@H](C(=O)N[C@@H](CCCCN)C(=O)N[C@H](C(=O)N[C@H](C(=O)N[C@@H](CC(=O)O)C(=O)O)[C@@H](C)O)[C@@H](C)CC)[C@@H](C)O)[C@@H](C)CC` is reported as 7.4% (Japanese adult patients; subcutaneous, 0.05 mg/kg; baseline: non-Japanese adult patients).
Under “minimum serum concentration”, `C[C@]12CC[C@@H]3c4ccc(O)cc4CC[C@H]3[C@@H]1C[C@@H](O)[C@@H]2O` is recorded as 0 ng/mL (GC-MS; breast cancer women on NSAI, serum; vaginal, 0.03 mg daily, 6 h, day 28).

Excerpt of the above:
`COc1cc2c(cc1OC)[C@@H]1Cc3ccc(OC)c(OC)c3CN1CC2` has a measured concentration of 632 ± 11.9 ng/mL (rat plasma QC sample; 640 ng/mL nominal, 15 days, -80 °C, medium QC level storage stability).
`CN1CC[C@@H](NC(=O)Nc2ccc(C#N)cc2)C[C@@H]1c1nc2ccccc2[nH]1` has a Vc/F of 3.32 L (population PK model; human cancer patients, plasma; oral, sample A kg patient).
Under “tissue to peel content ratio”, `COc1ccc(-c2cc(=O)c3cc(OC)c(OC)c(OC)c3o2)cc1OC` is recorded as 0.016% (C57BL/6 mouse, male, testes; oral, 1% w/w in diet, 6 weeks, orange peel extract diet; baseline: content in orange peel).
`O=C1C=Cc2c(c(-c3ccco3)cn2S(=O)(=O)c2ccccc2)C1=O` has a kinetic solubility of 21.2 µM (≈ 7.51 µg/mL) (LC-MS; PBS, 5% DMSO; 2 h).
For `CC1=C2C[C@H]3[C@@H](CC[C@@H]4C[C@H](NS(C)(=O)=O)CC[C@@]43C)[C@@H]2CC[C@@]2(C1)O[C@@H]1C[C@H](C)CN[C@H]1[C@H]2C`, the AUC(0-24) was 58.5 ng·h/mL (patients, plasma; oral, 20 mg single, day -7, cycle 1).
